{"data": "Results from different studies", "target": "Phosphorylase b kinase gamma catalytic chain, skeletal muscle/heart isoform (PHKG1, Homo sapiens, UniProt Q16816)", "note": "Compare with care: the assays were run in different laboratories."}
{"Compound": "NC(=O)[C@@H](O)C[C@H]1CCc2sc3ncnc(O[C@H]4CC[C@H](N5CCOCC5)CC4)c3c21", "test": "enzyme activity, inhibitor", "setting": "10 µM", "quantity": "inhibition", "value": "41%"}
{"Compound": "Cc1cccc(O[C@H]2CCC[C@@H](C(C)CNCc3ccncc3)C2)c1 (relative stereo)", "test": "enzyme activity, inhibitor", "setting": "1 µM", "quantity": "inhibition", "value": "6%"}
{"Compound": "COc1cc(Nc2nccc(-c3cnn4nc(OC)ccc34)n2)cc(C(F)(F)F)c1", "test": "binding, competition with immobilised ligand", "setting": "1 µM", "quantity": "remaining binding", "value": "91%"}
{"Compound": "COc1c(Cl)cccc1Nc1c(-c2ccncc2C#C[C@@]2(C)CCCN2C(=O)/C=C/CN(C)C)[nH]c2c1C(=O)NCC2", "test": "cell-free assay, competition with immobilised ligand", "setting": "3 µM", "quantity": "remaining binding", "value": "95%"}
{"Compound": "O=C(Cc1ccc(OCc2ccccc2)cc1)NC1(C(=O)O)CCN(C(=O)c2ccc(-c3cccc(Cl)c3)cc2)CC1", "test": "enzyme activity, inhibitor", "setting": "10 µM", "quantity": "activity vs control", "value": "127%"}
{"Compound": "CCN1CCN(Cc2ccc(C(=O)Nc3ccc(C)c(NCc4cnc5[nH]ccc5c4OC)c3)cc2C(F)(F)F)CC1", "test": "binding, competition with immobilised ligand", "setting": "1 µM", "quantity": "remaining binding", "value": "100%"}
{"Compound": "C=CC(=O)N1CCCC(n2c(=O)c3ncccc3n(Cc3ccc(Oc4ccccc4)cc3)c2=O)C1 (stereo not shown)", "test": "cell-free assay, competition with immobilised ligand", "setting": "1 µM", "quantity": "remaining binding", "value": "76%"}
{"Compound": "CNC(=O)C[C@H](Cc1ccc(C#N)cc1)NC(=O)c1cc(-c2ccc(CN[C@H](C)c3ccc(C)cc3)o2)ccc1Cl", "test": "enzyme activity, inhibitor", "setting": "1 µM", "quantity": "activity vs control", "value": "81%"}
{"Compound": "Cc1cnc2nc1Nc1cccc(c1)COC/C=C/COCc1cc(ccc1OCCN1CCOCC1)N2", "test": "binding", "setting": "0.1 µM", "quantity": "remaining binding", "value": "100%"}
{"Compound": "CNC(=O)C1CCN(c2cc(C)c(F)cc2NC(=O)c2ccc(-c3cc(O)ccc3C)c(C)c2)CC1", "test": "binding, competition with immobilised ligand", "setting": "1 µM", "quantity": "remaining binding", "value": "100%"}
{"Compound": "C=CC(=O)Nc1cccc(-c2cnc3[nH]cc(C(=O)NC(C)(C)C)c3n2)c1", "test": "enzyme activity, inhibitor", "setting": "0.1 µM", "quantity": "inhibition", "value": "-3%"}
{"Compound": "Nc1ncc(-c2cc(-c3cnn(CC(F)(F)F)c3)ncc2F)nc1C(=O)NC1CNCC(F)C1 (stereo not shown)", "test": "enzyme activity", "setting": "1 µM", "how to read": "baseline: DMSO control", "quantity": "remaining activity", "value": "82.4%"}
{"Compound": "CN1CCN(Cc2ccc(-c3ccc(CO[C@H]4CCC[C@@H]4NC(=O)c4cc(-c5cnn(C)c5)cnc4N)cc3)cc2)CC1", "test": "enzyme activity, inhibitor", "setting": "0.1 µM", "quantity": "inhibition", "value": "11%"}
{"note": "For quick reference, copied from above:"}
{"Compound": "C=CC(=O)N1CCCC(n2c(=O)c3ncccc3n(Cc3ccc(Oc4ccccc4)cc3)c2=O)C1 (stereo not shown)", "test": "cell-free assay, competition with immobilised ligand", "setting": "1 µM", "quantity": "remaining binding", "value": "76%"}
